Assay results pooled from the literature.
Lines come from different studies, so protocols differ. ± gives the spread as reported.

Under “List of Complaints score”, `Fc1ccc([C@@H]2CCNC[C@H]2COc2ccc3c(c2)OCO3)cc1` is recorded as 0 score (measured: Vomiting; healthy volunteers; oral, dose not given, given -1 h relative to LSD, together with: LSD; direction not given).
`CC(C)C[C@@H]1NC(=O)CNC(=O)[C@H](CC(N)=O)NC(=O)[C@H](CCCNC(=N)N)NC(=O)[C@H]([C@@H](C)O)NC(=O)[C@@H]2CSSC[C@@H]3NC(=O)[C@H]([C@@H](C)O)NC(=O)CNC(=O)CNC(=O)[C@H](C(C)C)NC(=O)[C@@H]4CSSC[C@H](NC(=O)[C@H]([C@@H](C)O)NC(=O)[C@H](CSSC[C@H](NC(=O)[C@H](C(C)C)NC(=O)[C@@H]5CCCN5C1=O)C(=O)NCC(=O)N[C@@H](CCC(=O)O)C(=O)N[C@@H]([C@@H](C)O)C(=O)N4)NC(=O)CNC(=O)[C@H](CCCCN)NC(=O)[C@H]([C@@H](C)O)NC(=O)[C@H](CC(N)=O)NC3=O)C(=O)N[C@@H](CO)C(=O)N[C@@H](Cc1c[nH]c3ccccc13)C(=O)N1CCC[C@H]1C(=O)N[C@@H](C(C)C)C(=O)N2` gave a remaining peptide of 59.6 ± 1.7% (HPLC; ammonium bicarbonate 0.1 M; 180 µM, 14 days, pH 9.0, 37 °C, deamidation stability).
For `C[C@@H](NC(=O)N1C(=O)[C@H](Cc2ccnc(N)c2)[C@H]1C(=O)O)C1CCCCC1`, “incidence of injection site erythema swelling” read 0% (healthy adult Chinese volunteers; continuous intravenous infusion, 1.5 mg/kg/h, 5-day infusion, CTCAE 5.0 grading).
The concentration of `CCCC1CCC(C2CCC(c3ccc(F)c(F)c3)CC2)CC1` (stereo not drawn) is reported as 0.33 ng/mL (measured: compound; human pregnant women, male fetuses, maternal serum; dose not given, paired maternal-cord samples, mean).
With `COc1cccc2c1CCCC2CCCN1CCN(C2CCCCC2)CC1` (stereo not drawn) the AUC(0-t) was 228 ng·h/mL (CD-1 mouse, male, plasma; intraperitoneal, 10 mg/kg).
The haematocrit of `O=S(=O)(Nc1ccccc1)c1ccc(NC(=S)Nc2ccccc2)cc1` is reported as 45% (male mouse, blood; oral, 5 mg/kg daily, 14 days).
`CCOc1cc(Oc2ccc(C(F)(F)F)cc2Cl)ccc1[N+](=O)[O-]` — result for “final body weight”: 95.3 ± 2.1 g (rat, male; 125 mg/kg, 4 days).
`CN1C(=O)[C@@H](NC(=O)c2nnc(Cc3ccccc3)[nH]2)COc2cccnc21`: “participants with TEAE leading to death” 0% (phase I multiple ascending dose; human, male and female; oral, 50 mg, 14 days).
`CC(=O)c1c(C)c2cnc(Nc3ccc(C4CCN(CCS(C)(=O)=O)CC4)cn3)nc2n(C2CCCC2)c1=O` — result for “elimination rate constant”: 2.22e-05 s⁻¹ (human, plasma; oral, 75 mg, day 1 single dose).
`Clc1ccc(-c2cc(Cl)c(Cl)cc2Cl)cc1Cl` has a log K(PDMS-water) of 6.04 ± 0.05 (fresh water; 20 °C, S30-1 sampler, 30 µm).
For `COc1ncccc1-c1cnn2ccc(N3CCN(C(=O)OC(C)C)CC3)nc12`, the drug concentration was 3.5 µM (mouse nerve ligation model, plasma; oral, 3 mg/kg, 30 min after last dose, repeat dosing day 2).
`COc1cc2c(Oc3ccc4[nH]c(C)cc4c3F)ccnc2cc1OCC1(N)CC1`: “grade 3 Hypothyroidism” 0% (paediatric recurrent refractory sarcoma; concentration not given, whole group).
The log K(PDMS-water) of `c1ccc2c(c1)c1cccc3ccc4cccc2c4c31` is reported as 5.12 ± 0.02 (fresh water; 12 (unit not given), 20 °C, S100 sampler, 100 µm).
`C[C@]1(CO)Cc2ncn(-c3ccc(C#N)c(Cl)c3)c2C(=O)O1`: “accumulation ratio of AUC(0-tau)” 1 to 1.08 (healthy Japanese subjects, plasma; multiple doses, tau 24 h, range).
`CCN(CCO)CCCC(C)Nc1ccnc2cc(Cl)ccc12` (stereo not drawn) has an anemia patients of 66% (newly diagnosed glioblastoma patients; oral, 800 mg/dose, grade 2, together with: radiotherapy and temozolomide).
With `COc1ccc2nc3cc(Cl)ccc3c(Nc3cc(CN4CCCC4)c(O)c(CN4CCCC4)c3)c2n1` the MCHC was 374 g/L (mouse, blood; oral, 57 mg/kg, tolerability, mean).
Under “change in Alert-Drowsy score”, `O=C(Nc1ccccc1)C1CCN(C(=O)Oc2cccnc2)CC1` is recorded as -18 (Bond-Lader VAS; healthy women; 100 mg; reference: pre-dose baseline, direction not given).
`CCCCCCCCCCCCCCCC(=O)N[C@@H](CCC(=O)NCCCC[C@H](NC(=O)[C@H](CC(=O)O)NC(=O)[C@H](CO)NC(=O)[C@@H](NC(=O)[C@H](Cc1ccccc1)NC(=O)[C@@H](NC(=O)CNC(=O)[C@H](CCC(N)=O)NC(=O)[C@H](CO)NC(=O)[C@@H](N)Cc1c[nH]cn1)[C@@H](C)O)[C@@H](C)O)C(=O)N[C@@H](CO)C(=O)N[C@@H](CCC(=O)O)C(=O)N[C@@H](Cc1ccc(O)cc1)C(=O)N[C@@H](CC(C)C)C(=O)N[C@@H](CC(=O)O)C(=O)N[C@@H](CO)C(=O)N[C@@H](CCC(=O)O)C(=O)N[C@@H](CCCNC(=N)N)C(=O)N[C@@H](C)C(=O)N[C@@H](CCCNC(=N)N)C(=O)N[C@@H](CC(=O)O)C(=O)N[C@@H](Cc1ccccc1)C(=O)N[C@H](C(=O)N[C@@H](C)C(=O)N[C@@H](Cc1c[nH]c2ccccc12)C(=O)N[C@@H](CC(C)C)C(=O)N[C@@H](CCC(=O)O)C(=O)N[C@@H](C)C(=O)NCC(=O)NCC(=O)O)C(C)C)C(=O)O`: “treatment-related adverse events” 9.1% (measured: Diarrhoea; humans CrCl 30 to 45 mL/min; subcutaneous, 100 µg single dose).
`CC(C)CC(=O)OC[C@H]1O[C@@](C#N)(c2ccc3c(N)ncnn23)[C@H](O)[C@@H]1O` — result for “recovery in bile”: 0% (Sprague-Dawley rat, male, bile; 80 mg/kg, time not given; reference: dose).
With `CC(C)C[C@@H]1NC(=O)CNC(=O)[C@H](CC(N)=O)NC(=O)[C@H](CCCNC(=N)N)NC(=O)[C@H]([C@@H](C)O)NC(=O)[C@@H]2CSSC[C@@H]3NC(=O)[C@H](CCCCN)NC(=O)CNC(=O)CNC(=O)[C@H](C(C)C)NC(=O)[C@@H]4CSSC[C@H](NC(=O)[C@H]([C@@H](C)O)NC(=O)[C@H](CSSC[C@H](NC(=O)[C@H](C(C)C)NC(=O)[C@@H]5CCCN5C1=O)C(=O)NCC(=O)N[C@@H](CCC(=O)O)C(=O)N[C@@H]([C@@H](C)O)C(=O)N4)NC(=O)CNC(=O)[C@@H]1CCCN1C(=O)[C@H]([C@@H](C)O)NC(=O)[C@H](CC(N)=O)NC3=O)C(=O)N[C@@H](CO)C(=O)N[C@@H](Cc1c[nH]c3ccccc13)C(=O)N1CCC[C@H]1C(=O)N[C@@H](C(C)C)C(=O)N2` the remaining peptide was 87.9 ± 0.5% (HPLC; ammonium bicarbonate; 180 µM, 14 days, pH 9.0, 25 °C, deamidation stability).
`[O-][S+]1CCc2nc(N3CCC(c4ncc(Cl)cn4)CC3)nc(NC3(CO)CCC3)c21` (stereo not drawn) — result for “adverse event incidence”: 0% (measured: oral hypoaesthesia; healthy male humans; 36 mg single dose).
`CC/C(=C(\c1ccccc1)c1ccc(OCCN(C)C)cc1)c1ccccc1` has an AUC(0-t) of 6820 ng·h/mL (CD-1 mouse, male, plasma; intraperitoneal, 30 mg/kg).
`C1=Cc2nc1cc1ccc([n-]1)c(C1CC1)c1nc(cc3ccc([n-]3)c2C2CC2)C=C1.CC(=O)[O-].[Mn+3]` gave a plasma concentration of 219 ng/mL (LC-MS/MS; Sprague-Dawley rat, plasma; oral gavage, dose not given, 360 min, individual rat Rat1).
Under “patients with adverse event”, `CN1CC[C@@H](c2c(O)cc(O)c3c(=O)cc(-c4ccc(C(F)(F)F)cc4Cl)oc23)[C@@H]1CO` is recorded as 5% (measured: Epistaxis; relapsed or refractory haematological malignancies; oral, dose not given, grade 3 to 4, all arms).
For `Clc1ccc(-c2cc(Cl)c(Cl)c(Cl)c2)c(Cl)c1`, “literature range factor” read 1.2 (PDMS-water partitioning; PCB compilation; reference: maximum over minimum K).
For `COc1cc(C2C3=C(COC3=O)N(CCO)c3cc4c(cc32)CCC4)cc(OC)c1OC` (stereo not drawn), the body weight was 210 g (female Sprague-Dawley rats; intraperitoneal, 400 mg/kg, 48 h, single dose, mean).
The Erythrocyte percentage of `CCc1ccc(CC/C=C/c2ccc3c(c2)C(=O)CC3)cc1` is reported as 13.5% (Sprague-Dawley rat, male; oral, 450 mg/kg/day, 14 days).
For `C/C=C1/CN2CC[C@@]34c5cc(O)ccc5N(C)[C@]35OC[C@@]4(C(=O)OC)[C@H]1C[C@H]25`, the CLint was 51.4 ± 3.4 µL/min/mg (rat liver microsomes, male; 1 µM, pH 7.4).
For `Cn1cncc1-c1c(F)cncc1NC(=O)c1c(N)nn2cc(F)cnc12`, “grade ≥3 hyperkalaemia incidence” read 0% (human patients; oral, 220 mg once daily).
For `O=[Se](=O)([O-])[O-].[Na+].[Na+]`, “apparent clearance (CL/F)” read 4.72 mL/h/kg (rat; intraperitoneal, 1 mg/kg).
The CLint of `CC(C)=CC1C(C(=O)OC(C#N)c2cccc(Oc3ccccc3)c2)C1(C)C` (stereo not drawn) is reported as 1.32 mL/min/mg protein (pooled human liver microsomes).
`CN1CCN(c2ccc(Nc3nccc(-c4cccc(F)c4)n3)cc2C(F)(F)F)CC1` has a toxicity of 0% (Danio rerio embryos; 5 µM, 5 d).
`Clc1ccc(-c2cc(Cl)c(Cl)c(Cl)c2Cl)cc1Cl` gave a log K(PDMS-water) of 6.38 ± 0.06 (fresh water; 20 °C, S30-2 sampler, 30 µm).
`COc1ccc(C[C@@H]2NC(=O)[C@H]([C@@H](C)O)NC(=O)[C@@H]3[C@@H]4CCN3C(=O)[C@@H]3Cc5cn(c6ccc(F)cc56)CCCCCCN(Cc5ccc(cc5)CCNC(=O)[C@]5(C)CCCN5C2=O)C(=O)CCC(=O)N[C@@H](C)C(=O)N[C@H](CNC(=O)CCCCC[N+](C)(C)C)C(=O)N[C@@H](Cc2cccc(c2)CNC(=O)CO4)C(=O)N3)cc1` — result for “participants with adverse event”: 2% (measured: throat irritation; human; dose not given).
`CCN1[C@@H](C(=O)NC23CCC(C(=O)O)(CC2)CC3)[C@H](c2cccc(Cl)c2F)[C@]2(C(=O)Nc3cc(Cl)ccc32)C12CCCCC2` — result for “grade 3/4 thrombocytopenia incidence”: 33.3% (patients with advanced solid tumours; oral, dose not given, all doses).
The TRAE incidence of `CO[C@H]1C[C@@H]2CC[C@@H](C)[C@@](O)(O2)C(=O)C(=O)N2CCCC[C@H]2C(=O)O[C@H]([C@H](C)C[C@@H]2CC[C@@H](OC(=O)NCCOCCOCCOCCOCCOCCOCCOCCOCCC(=O)N3CCc4cc(Cn5nc(-c6ccc7oc(N)nc7c6)c6c(N)ncnc65)ccc4C3)[C@H](OC)C2)C[C@@H](O)[C@H](C)/C=C(\C)[C@@H](O)[C@@H](OC)C(=O)[C@H](C)C[C@H](C)/C=C/C=C/C=C/1C` is reported as 0% (phase 1 dose escalation, measured: headache; advanced solid tumour patients; intravenous, 16 mg weekly, grade ≥3).
`N.N.[Cl][Pt][Cl]` has a body weight of 19.2 g (mouse xenograft model; dose not given, day 10, group mean).
`N=C(N)NCCC[C@@H](NC(=O)[C@@H](N)Cc1ccccc1)C(=O)N[C@@H](Cc1ccccc1)C(=O)N[C@@H](CCCCN)C(N)=O`: “mean amount excreted in urine” 7.75e+06 ng (LC-MS; human; 25 mg, 5.833 h).
For `CC(C)[C@@H]1NC(=O)CNC(=O)[C@H](CC(N)=O)NC(=O)[C@H](CCCNC(=N)N)NC(=O)[C@H](Cc2ccc(O)cc2)NC(=O)[C@H](C(C)C)NC(=O)[C@@H](NC(=O)[C@@H](NC(=O)[C@H](CC(N)=O)NC(=O)[C@H](Cc2c[nH]c3ccccc23)NC(=O)[C@H](C)NC(=O)[C@H](Cc2ccccc2)NC(=O)CN)C(C)C)CSSC[C@@H](C(=O)N[C@@H](Cc2cnc[nH]2)C(=O)N[C@@H](CCCNC(=N)N)C(=O)N[C@@H](CCCNC(=N)N)C(=O)N[C@@H](C)C(=O)N[C@@H](CC(N)=O)C(N)=O)NC(=O)[C@H](C(C)C)NC(=O)[C@H](CCCNC(=N)N)NC1=O`, the haematocrit was 41.1 ± 0.64% (ICR mouse, blood; intramammary, 5 mg/kg, day 5, 3 d dosing).
